Measured values from different studies.
Each line is one published result; not all experiments were run side by side.
Organism: Acinetobacter baumannii

colistin trifluoroacetate — MIC (broth microdilution; ATCC 19606): 0.06 mg/L
tigecycline — MIC (broth microdilution; ATCC 17978): 0.63 µM
colistin — MIC (broth microdilution; ATCC 19606; susceptible reference strain): < 0.125 mg/L
benzalkonium chloride — MIC (ATCC 17498; tested up to 1 µM): 32 µM
azithromycin — MIC (broth microdilution; ATCC 17978): 2.5 µM
polymyxin B — MIC (broth microdilution; ATCC 19606, Mueller-Hinton broth; 24 h, 37 °C): 2 mg/L
colistin — MIC (clinical isolate 3A1): 0.5 mg/L
colistin — MIC (broth microdilution; clinical isolate RKI-No_16/15): ≤ 0.5 mg/L
gentamicin sulfate — MIC (ATCC 19606, susceptible; 18 h, 37 °C, dark): 0.5 µM

For quick reference, copied from above:
polymyxin B — MIC (broth microdilution; ATCC 19606, Mueller-Hinton broth; 24 h, 37 °C): 2 mg/L
